Measured values pooled from the literature.
Protocols differ between the studies behind these lines.
Technique: steady-state kinetics
B1: enzyme R120K (Arabidopsis thaliana, UniProt O82390); chain MNARALLCSSNIHSLYTSNRPPEKTSSSRSLRNLKPSPKSLRVWIYPRNRSSVFRVLVRSSDKSESSNSYYVEGDKVSGNNDVVSDSPSSIVLPWWEEFPKRWVIVLLCFSAFLLCNMDKVNMSIAILPMSAEYGWNPATVGLIQSSFFWGYLLTQIAGGIWADTVGGKRVLGFGVIWWSIATILTPVAAKLGLPYLLVVRAFMGVGEGVAMPAMNNILSKWVPVQERSRSLALVYSGMYLGSVTGLAFSPFLIHQFGWPSVFYSFGSLGTVWLTLWLTKAESSPLEDPTLLPEERKLIADNCASKEPVKSIPWRLILSKPPVWALISCHFCHNWGTFILLTWMPTYYHQVLKFNLMESGLLSVFPWMTMAISANAGGWIADTLVSRGFSVTNVRKIMQTIGFLGPAFFLTQLKHIDSPTMAVLCMACSQGTDAFSQSGLYSNHQDIAPRYSGVLLGLSNTAGVLAGVLGTAATGHILQHGSWDDVFTISVGLYLVGTVIWNLFSTGEKIID
B2: ybiA (Escherichia coli, UniProt P30176); chain MPVRAQRIQHVMQDTIINFYSTSDDYGDFSNFAAWPIKVDGKTWPTSEHYFQAQKFLDEKYREEIRRVSSPMVAARMGRDRSKPLRKNWESVKEQVMRKALRAKFEQHAELRALLLATAPAKLVEHTENDAYWGDGGHGKGKNRLGYLLMELREQLAIEK
B3: ASRGL1 (Homo sapiens, UniProt Q7L266); chain 1 MNPIVVVHGGGAGPISKDRKERVHQGMVRAATVGYGILREGGSAVDAVEGAVVALEDDPEFNAGCGSVLNTNGEVEMDASIMDGKDLSAGAVSAVQCIANPIKLARLVMEKTPHCFLTDQGAAQFAAAMGVPEIPGEKLVTERNKKRLEKEKHEKGAQKTDCQKNLG; chain 2 TVGAVALDCKGNVAYATSTGGIVNKMVGRVGDSPCLGAGGYADNDIGAVSTTGHGESILKVNLARLTLFHIEQGKTVEEAADLSLGYMKSRVKGLGGLIVVSKTGDWVAKWTSTSMPWAAAKDGKLHFGIDPDDTTITDLP
B4: BshA Y95F (Bacillus subtilis, UniProt P42982); chain MRKLKIGITCYPSVGGSGIIATELGKQLAEKGHEIHFITSSIPFRLNTYHPNIHFHEVEVNQYAVFKYPPYDLTLASKIAEVAERENLDIIHAHFALPHAVCAYLAKQMLKRNIGIVTTLHGTDITVLGYDPSLKDLIRFAIESSDRVTAVSSALAAETYDLIKPEKKIETIYNFIDERVYLKKNTAAIKEKHGILPDEKVVIHVSNFRKVKRVQDVIRVFRNIAGKTKAKLLLVGDGPEKSTACELIRKYGLEDQVLMLGNQDRVEDLYSISDLKLLLSEKESFGLVLLEAMACGVPCIGTNIGGIPEVIKNNVSGFLVDVGDVTAATARAMSILEDEQLSNRFTKAAIEMLENEFSSKKIVSQYEQIYADLAEPE
B5: enzyme (Bacillus pumilus, UniProt A8FFI9); chain EARSIAWSVDEFFKNREGTFVIQEVKEKSPWVYNKKRAKERFAPQSTFKVANALIGLQTGAVRDEYDIKYWDGVKREIDNWNRDHTLGSGMRDSVVWYYQAMARDIGEERMNHWVKAIHYGNKDISGGIDQFWLSSTLRISPIEQVRFLKQLYEETLPFDLKNMRTVKRMMVQEEEKHATLYGKTGSGSDIGWYVGFIKHEHKTYILATNIKGTGIEAKDITYRILKKYHLMEASV
B6: UGT1A9 (Homo sapiens, UniProt O60656); chain GKLLVVPMDGSHWFTMRSVVEKLILRGHEVVVVMPEVSWQLGRSLNCTVKTYSTSYTLEDLDREFKAFAHAQWKAQVRSIYSLLMGSYNDIFDLFFSNCRSLFKDKKLVEYLKESSFDAVFLDPFDNCGLIVAKYFSLPSVVFARGILCHYLEEGAQCPAPLSYVPRILLGFSDAMTFKERVRNHIMHLEEHLLCHRFFKNALEIASEILQTPVTEYDLYSHTSIWLLRTDFVLDYPKPVMPNMIFIGGINCHQGKPLPMEFEAYINASGEHGIVVFSLGSMVSEIPEKKAMAIADALGKIPQTVLWRYTGTRPSNLANNTILVKWLPQNDLLGHPMTRAFITHAGSHGVYESICNGVPMVMMPLFGDQMDNAKRMETKGAGVTLNVLEMTSEDLENALKAVINDKSYKENIMRLSSLHKDRPVEPLDLAVFWVEFVMRHKGAPHLRPAAHDLTWYQYHSLDVIGFLLAVVLTVAFITFKCCAYGYRKCLGKKGRVKKAHKSKTH
B7: MTRR A129T (Homo sapiens, UniProt Q9UBK8); chain MRRFLLLYATQQGQAKAIAEEICEQAVVHGFSADLHCISESDKYDLKTETAPLVVVVSTTGTGDPPDTARKFVKEIQNQTLPVDFFAHLRYGLLGLGDSEYTYFCNGGKIIDKRLQELGARHFYDTGHTDDCVGLELVVEPWIAGLWPALRKHFRSSRGQEEISGALPVASPASSRTDLVKSELLHIESQVELLRFDDSGRKDSEVLKQNAVNSNQSNVVIEDFESSLTRSVPPLSQASLNIPGLPPEYLQVHLQESLGQEESQVSVTSADPVFQVPISKAVQLTTNDAIKTTLLVELDISNTDFSYQPGDAFSVICPNSDSEVQSLLQRLQLEDKREHCVLLKIKADTKKKGATLPQHIPAGCSLQFIFTWCLEIRAIPKKAFLRALVDYTSDSAEKRRLQELCSKQGAADYSRFVRDACACLLDLLLAFPSCQPPLSLLLEHLPKLQPRPYSCASSSLFHPGKLHFVFNIVEFLSTATTEVLRKGVCTGWLALLVASVLQPNIHASHEDSGKALAPKISISPRTTNSFHLPDDPSIPIIMVGPGTGIAPFIGFLQHREKLQEQHPDGNFGAMWLFFGCRHKDRDYLFRKELRHFLKHGILTHLKVSFSRDAPVGEEEAPAKYVQDNIQLHGQQVARILLQENGHIYVCGDAKNMAKDVHDALVQIISKEVGVEKLEAMKTLATLKEEKRYLQDIWS
B8: panA (Haloferax volcanii, UniProt D4GUJ7); chain MMTDTVDDVDLPYDKDSASQQEKITALQERLEVLETQNEEMRDKLLDTNAENNKYQQKLERLTHENKKLKQSPLFVATVQEITDEGVIIKQHGNNQEALTEVTDEMREELEPDARVAVNNSLSIVKRLDKETDVRARVMQVEHSPDVTYEDIGGLEEQMQEVRETVEMPLDRPEMFAEVGIDPPSGVLLYGPPGTGKTMLAKAVANQTNASFIKMAGSELVHKFIGEGAKLVRDLFEVARENEPAVIFIDEIDAIASKRTDSKTSGDAEVQRTMMQLLAEMDGFDERGNIRIIAATNRFDMLDPAILRPGRFDRLIEVPKPNEDGREIIFQIHTRKMNVSDDVDFVELAEMADNASGADIKAVCTEAGMFAIRDDRTEIFMQDFVDAWEKIQQEASDETEVSRAFA
Sequence of UniProt Q01740 (whole entry, looked up): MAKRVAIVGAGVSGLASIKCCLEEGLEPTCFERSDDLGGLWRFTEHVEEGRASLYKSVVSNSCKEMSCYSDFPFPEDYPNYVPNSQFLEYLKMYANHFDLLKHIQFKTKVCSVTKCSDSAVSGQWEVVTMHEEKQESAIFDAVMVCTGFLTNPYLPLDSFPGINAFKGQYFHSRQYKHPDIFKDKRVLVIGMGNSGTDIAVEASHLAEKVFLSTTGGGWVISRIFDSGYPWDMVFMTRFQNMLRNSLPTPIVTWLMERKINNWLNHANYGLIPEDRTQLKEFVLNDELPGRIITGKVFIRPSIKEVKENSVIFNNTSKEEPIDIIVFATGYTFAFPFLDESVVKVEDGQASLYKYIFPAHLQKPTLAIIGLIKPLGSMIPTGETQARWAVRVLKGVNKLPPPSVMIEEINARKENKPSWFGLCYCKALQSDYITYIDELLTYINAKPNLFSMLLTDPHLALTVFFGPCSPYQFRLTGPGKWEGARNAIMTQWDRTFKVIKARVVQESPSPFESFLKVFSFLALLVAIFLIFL
Sequence of UniProt Q8KN33 (whole entry, looked up): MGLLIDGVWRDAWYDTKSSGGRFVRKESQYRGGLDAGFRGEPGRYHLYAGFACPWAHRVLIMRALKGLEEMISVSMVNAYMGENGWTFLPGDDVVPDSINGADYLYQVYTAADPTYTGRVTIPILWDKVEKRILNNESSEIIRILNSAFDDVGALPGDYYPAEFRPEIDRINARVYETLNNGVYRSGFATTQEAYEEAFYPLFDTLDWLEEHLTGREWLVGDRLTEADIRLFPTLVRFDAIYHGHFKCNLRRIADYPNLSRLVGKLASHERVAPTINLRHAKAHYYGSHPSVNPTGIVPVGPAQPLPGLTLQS
Sequence of UniProt Q6PHW0 (whole entry, looked up): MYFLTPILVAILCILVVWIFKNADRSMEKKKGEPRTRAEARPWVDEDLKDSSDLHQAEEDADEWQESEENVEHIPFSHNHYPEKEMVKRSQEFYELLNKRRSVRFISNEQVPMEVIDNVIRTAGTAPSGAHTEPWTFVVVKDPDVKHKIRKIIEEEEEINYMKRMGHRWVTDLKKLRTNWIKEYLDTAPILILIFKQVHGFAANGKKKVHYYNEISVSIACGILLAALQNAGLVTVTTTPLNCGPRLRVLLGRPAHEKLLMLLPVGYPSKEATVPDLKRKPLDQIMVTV
Sequence of UniProt P10635 (whole entry, looked up): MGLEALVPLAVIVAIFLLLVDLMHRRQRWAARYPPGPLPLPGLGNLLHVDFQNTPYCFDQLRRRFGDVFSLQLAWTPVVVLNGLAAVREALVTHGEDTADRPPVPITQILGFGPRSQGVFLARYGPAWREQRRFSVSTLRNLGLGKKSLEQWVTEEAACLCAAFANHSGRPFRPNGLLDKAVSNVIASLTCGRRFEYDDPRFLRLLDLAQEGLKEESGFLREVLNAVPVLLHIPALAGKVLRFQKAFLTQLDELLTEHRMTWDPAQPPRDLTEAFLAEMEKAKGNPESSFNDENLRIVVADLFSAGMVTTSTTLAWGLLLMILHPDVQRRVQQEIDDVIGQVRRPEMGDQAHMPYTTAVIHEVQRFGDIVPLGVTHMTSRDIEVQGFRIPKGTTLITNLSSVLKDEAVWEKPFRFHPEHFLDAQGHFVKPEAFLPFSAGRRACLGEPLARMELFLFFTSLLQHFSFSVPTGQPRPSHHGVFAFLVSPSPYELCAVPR
Sequence of UniProt D4QF24 (whole entry, looked up): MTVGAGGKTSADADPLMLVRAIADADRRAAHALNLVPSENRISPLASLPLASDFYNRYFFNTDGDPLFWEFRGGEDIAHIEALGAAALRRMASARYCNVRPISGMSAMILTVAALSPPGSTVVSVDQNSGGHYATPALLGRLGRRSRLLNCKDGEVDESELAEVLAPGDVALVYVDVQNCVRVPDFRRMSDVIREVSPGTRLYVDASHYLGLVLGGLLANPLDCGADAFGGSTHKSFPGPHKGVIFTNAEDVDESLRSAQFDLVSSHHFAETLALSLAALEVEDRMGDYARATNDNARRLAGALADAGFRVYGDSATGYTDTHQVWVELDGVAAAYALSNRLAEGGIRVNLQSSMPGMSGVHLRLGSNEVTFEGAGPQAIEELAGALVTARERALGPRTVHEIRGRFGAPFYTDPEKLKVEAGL

Substance | substrate | system | setting | quantity | value
B1 (enzyme R120K) | O=P(O)(O)O |  | pH 6.5, 25 °C, apparent, not purified | Km | 161 µM
pcpF (Sphingobium chlorophenolicum, UniProt Q8KN33) | N[C@@H](CS)C(=O)O |  | pH 6.5, together with: GS-TriCH, ascorbic acid 2 mM | Km | 1970 µM
Ptb (Listeria monocytogenes, UniProt Q8Y7B7) | CC(C)C(=O)SCCNC(=O)CCNC(=O)[C@H](O)C(C)(C)COP(=O)(O)OP(=O)(O)OC[C@H]1O[C@@H](n2cnc3c(N)ncnc32)[C@H](O)[C@@H]1OP(=O)(O)O |  | pH 7.5, 25 °C, apparent | Km | 57.9 µM
LipK (Streptomyces, UniProt D4QF24) | O=C[C@H]1O[C@@H](n2ccc(=O)[nH]c2=O)[C@H](O)[C@@H]1O |  | together with: L-Thr 30 mM | Km | 29200 µM
B2 (ybiA) | Nc1nc(N[C@@H]2O[C@H](COP(=O)(O)O)[C@@H](O)[C@H]2O)c(N)c(=O)[nH]1 |  | pH 8, 22 °C, substrate not purified | Km | 4040 µM
protein (Actinidia chinensis, UniProt H9M5U5) | CC(C)=CCC/C(C)=C/COP(=O)(O)OP(=O)(O)O |  | pH 7.5, room temperature, labelled compound, together with: MgCl2 20 mM | Km | 1.89 µM
B3 (ASRGL1) | COC(=O)[C@H](Cc1ccccc1)NC(=O)C[C@H](N)C(=O)O |  | pH 7.4, 37 °C, NaCl 100 mM | Km | 1600 µM
IYD (Homo sapiens, UniProt Q6PHW0) | N[C@@H](Cc1cc(F)c(O)c(I)c1)C(=O)O |  | pH 7.4, 25 °C, together with: sodium dithionite 0.5% | Km | 36 µM
B4 (BshA Y95F) | CC(=O)N[C@H]1[C@@H](OP(=O)(O)OP(=O)(O)OC[C@H]2O[C@@H](n3ccc(=O)[nH]c3=O)[C@H](O)[C@@H]2O)O[C@H](CO)[C@@H](O)[C@@H]1O |  | pH 7.5, 21 °C, together with: malate 0–25 mM | Km | 350 µM
B5 (enzyme) | CC1(C)S[C@@H]2[C@H](NC(=O)[C@H](C(=O)O)c3ccsc3)C(=O)N2[C@H]1C(=O)O |  | pH 7 | Km | 34 µM
alanine aminopeptidase (Neisseria meningitidis, UniProt Q9JYV4) | N=C(NCCC[C@H](N)C(=O)Nc1ccc2c(CC(N)=O)cc(=O)oc2c1)N[N+](=O)[O-] |  | pH 7.5, 37 °C | Km | 60.4 µM
enzyme (Oryctolagus cuniculus, UniProt A0A5F9DQ59) | O=c1oc2c(O)c(O)ccc2cc1-c1nc2ccccc2s1 |  | pH 7.4, 37 °C | Km | 1.4 µM
FMO1 (Homo sapiens, UniProt Q01740) | CN1CCC[C@H]1c1cccnc1 | HEK293 microsomes | 37 °C, not purified, together with: NADPH regenerating system | Km | 800 µM
B6 (UGT1A9) | Oc1ccc([C@H]2COc3cc(O)ccc3C2)cc1 |  | pH 7.4, 37 °C | Vmax | 0.000794 µmol/min/mg
B7 (MTRR A129T) | COc1cccc2c1C(=O)c1c(O)c3c(c(O)c1C2=O)C[C@@](O)(C(=O)CO)C[C@@H]3O[C@H]1C[C@H](N)[C@H](O)[C@H](C)O1 |  | pH 7.5, 37 °C, substoichiometric FMN, together with: NADPH | Km | 137 µM
protein (Cyanidioschyzon merolae, UniProt Q84Y91) | Nc1nc2c(ncn2[C@@H]2O[C@H](COP(=O)(O)OP(=O)(O)OP(=O)(O)O)[C@@H](O)[C@H]2O)c(=O)[nH]1 |  | pH 7.5, basal, without liposomes | Km | 113 µM
B8 (panA) | Nc1ncnc2c1ncn2[C@@H]1O[C@H](COP(=O)(O)OP(=O)(O)OP(=O)(O)O)[C@@H](O)[C@H]1O |  | pH 8, 42 °C, NaCl 2 M, together with: MgCl2 9.6 mM | Km | 438 µM
CYP2D6 (Homo sapiens, UniProt P10635) | CCN(CC)CCNC(=O)c1ccc(N)cc1 |  | pH 7.4, 37 °C | Km | 140 µM

Some of these lines once more:
Substance | substrate | system | setting | quantity | value
LipK (Streptomyces, UniProt D4QF24) | O=C[C@H]1O[C@@H](n2ccc(=O)[nH]c2=O)[C@H](O)[C@@H]1O |  | together with: L-Thr 30 mM | Km | 29200 µM
enzyme (Oryctolagus cuniculus, UniProt A0A5F9DQ59) | O=c1oc2c(O)c(O)ccc2cc1-c1nc2ccccc2s1 |  | pH 7.4, 37 °C | Km | 1.4 µM
